Results gathered from unrelated publications.
Each numbered part is a random draw from the data of one study; scales do not carry over between parts.

Block 1
Target: Histone acetyltransferase KAT6A, both winged helices, GST fusion (KAT6A, Homo sapiens, UniProt Q92794, residues 1-181)
Technique: protein binding microarray
Form: double-stranded DNA, one strand shown
Medium: in vitro
Tested at: not given
Setting: 8-mer, flanks averaged, mean of 2 arrays, mostly near background
Relative to: not given
Direction: higher = stronger binding
Residues (chain): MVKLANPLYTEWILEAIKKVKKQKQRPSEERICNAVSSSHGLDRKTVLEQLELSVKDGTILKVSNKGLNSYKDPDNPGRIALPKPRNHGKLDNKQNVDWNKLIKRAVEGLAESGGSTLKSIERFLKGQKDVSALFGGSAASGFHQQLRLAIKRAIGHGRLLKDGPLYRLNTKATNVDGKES
Oligonucleotide	E-score
ATCCACTA	-0.161
GACACTCC	-0.0704
AATGCTGA	-0.187
CATCCCGC	0.232
AGATCCAA	-0.216
TCTGTCAA	-0.0389
ACTGCTAT	-0.131
AGCACTTC	-0.0751
GTAGTCAA	-0.116
CCACCGTA	0.0617
CTGAGTGA	-0.135
CAAGCTTA	-0.0269
CATATACA	-0.0648
ACGACTTG	-0.129
AAGAATAG	-0.0935
ACACGCGC	0.317
GAGGATGC	-0.127
ATTCTGAG	-0.122
CGTTTATA	0.109
CAGCCGAC	0.23
GCAACAGA	0.0256
AAAGTCCC	-0.0572
CGAAAAAC	0.00473
AATTAAAG	-0.215
GTTTTGGA	-0.0827

Block 2
Target: RNA binding protein fox-1 homolog 2, RRM domain, GST-SBP tag (RBFOX2, Homo sapiens, UniProt O43251-10, residues 100-194)
Technique: RNA Bind-n-Seq
Form: RNA
Medium: in vitro
Tested at: 365 nM
Setting: natural RNA segment, single round, ends assumed
Relative to: no-protein control
Direction: higher = stronger binding
Residues (chain): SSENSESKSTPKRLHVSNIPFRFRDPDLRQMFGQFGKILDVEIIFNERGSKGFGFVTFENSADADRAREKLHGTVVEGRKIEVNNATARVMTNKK
Oligonucleotide	RBNS enrichment (R)
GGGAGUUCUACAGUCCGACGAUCUUUACUAUAAUAAUUAUUUUUCUUCUAUGGAACUCAGAAUCCUGGCUACAUUUGAGGACAGGAAUAUGUUGAGCCUGAUUUUCCUGGUGUGUGUAAAAUAUUUCCUAGGAUGGAAUUCUCGGGUGCCAA	0.46
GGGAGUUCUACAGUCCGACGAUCAAGGCGAUGCUACACUGUCCUGUUCCCGAGAUACCUCGCCCUGAACAGAGAUAUAUUUUGUACAAAAUGAACUGUUAAGUUGCCUUUGGCUAACAUCCAUAUGUAUAUAUUGGAAUUCUCGGGUGCCAA	0.261
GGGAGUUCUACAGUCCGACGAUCAGGAAGUUUUAAUCCACUUCAGGAUGCAUAUUAGCAAGAUACUUUCAUAUACAGGAUAGCCUAAUUUUAUUUGUUUAAAUAUGCUUAAUAUGCCCAAGAUUGCAAAUGCAUGGAAUUCUCGGGUGCCAA	2.56
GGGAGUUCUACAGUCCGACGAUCUCAGGAUUCAGUCACCCAAUUUUAACACACCCCAGUGGUACUCCCCGACCCAGGCCCCCAAAUCUGGGCUGUUGUGGAACACCCAUGACUUAAGCCUUUCUCCAAGUCUGUGGAAUUCUCGGGUGCCAA	0.402
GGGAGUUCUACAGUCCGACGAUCGGAAGUGGCAGUAAAAAGUAUUGAGUGUUUUAUGCUGGUGACUGUAACCAAUGUCAUCUUGCUAAAUUCAUGUUUUGUACAAUUACUAAAUUGUAUACAUUUUGUUAUAGUGGAAUUCUCGGGUGCCAA	0.589
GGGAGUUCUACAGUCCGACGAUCACCUCAUGCCUGGCCCCCCUCCAGGCAUGCUGGCCUCCCAAUAAAGCUGGACAAGAAGCUGCUAUGAGUGGGCCGUCGCAAGUGUGCCAUCUGUGUCUGGGCAUGGGAAAUGGAAUUCUCGGGUGCCAA	0.625
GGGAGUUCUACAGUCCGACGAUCUAAAAACAGCACUGUUCCCCAAGGGGGUGUUCUGGGCUUCUCUCUCUUCUCACUUUACCUGUUUUUAUUUCUGCUUGUAUCUAAGUGUGAAGGCAGGGCAGGUACACUGAUGGAAUUCUCGGGUGCCAA	0.639
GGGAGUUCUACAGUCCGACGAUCACCAAAAGGGGAUUUUUGAAAACGAGGAGUUGACCAAAAUAAUAUCUGAAGAUGAUUGCUUUUCCCUGCUGCCAGCUGAUCUGAAAUGUUUUGCUGGCACAUUAAUCAUAUGGAAUUCUCGGGUGCCAA	0.314

Block 3
Target: RING finger protein unkempt homolog, zinc fingers 1-6, GST-SBP tag (UNK, Homo sapiens, UniProt Q9C0B0, residues 30-357)
Technique: RNA Bind-n-Seq
Form: RNA
Medium: in vitro
Tested at: not given
Setting: RNA with constant flanks, human and mouse sites, ends assumed
Relative to: input RNA pool
Direction: higher = stronger binding
Residues (chain): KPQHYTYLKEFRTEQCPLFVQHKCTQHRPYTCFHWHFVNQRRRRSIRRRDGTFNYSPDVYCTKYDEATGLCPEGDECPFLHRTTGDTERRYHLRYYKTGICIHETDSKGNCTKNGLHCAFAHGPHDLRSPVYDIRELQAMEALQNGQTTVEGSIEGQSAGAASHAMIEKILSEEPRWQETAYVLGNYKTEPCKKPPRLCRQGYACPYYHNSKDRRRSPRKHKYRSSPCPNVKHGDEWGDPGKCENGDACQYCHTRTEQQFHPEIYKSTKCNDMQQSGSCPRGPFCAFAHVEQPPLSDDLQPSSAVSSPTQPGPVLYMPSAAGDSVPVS
Oligonucleotide	bound/input enrichment [ratio]
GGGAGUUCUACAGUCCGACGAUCGAGCAGCGGCAGUUCUCACUACAGCGCCAGGACGAGUCCGGUUCGUGUUCGUCCGCGGAGAUCUCUCUCAUCUCGCUCGGCUGCGGGAAAUCGGGCUGAAGCGACUGAGUCCGCGAUGGACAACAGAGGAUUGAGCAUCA	0.0805
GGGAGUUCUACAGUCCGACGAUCGUACGUCAUUCAAGUGUUUAAUGGUAAAGGUGUAUUAUAAGGAUAGUGCUAGAAGCUUUCAUAGACUGUAAAGAGUUCCAUGGAGUAUUAAACCCAUAGUUGGAAAGGUCUGAGGGCCCACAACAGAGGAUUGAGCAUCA	0.445
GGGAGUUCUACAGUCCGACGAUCGAGGACCCUUCUUCUCCGCGAGCAAGCCCUGCCCACUCGCCCCGGGAAAAUGGAAUCGACAAAAAUCGCCUGCUAAAGAAGGAUGCUUCUAGCAGUCCAGCUUCCACGGCCUCCUCGGCACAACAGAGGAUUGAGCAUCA	0.0991
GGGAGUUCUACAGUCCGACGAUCAGUGAGCCUGAAGAGAAGCUCCAGGAAACAGUUGAACCGACUUCAAAGCAGUUAACUGAAUCCUCUGAAGAGGCAAAAGAAGCAGCAAUACCAGGACUGAAUGAAGAUGAGGUCGCUUCUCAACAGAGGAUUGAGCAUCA	0.179
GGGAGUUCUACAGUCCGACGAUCCCUUUAUAUCCUCAGCCCAAGAGACGGUGUUCCCCUGCGACCUCCAAGCCUGGAAUUGUGCAUAGCCUGGGUCUUGUAUCUUUGUAUAACGGAUGUUAUUUGUACGAAGGGCAGUUCGUACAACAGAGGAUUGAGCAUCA	0.469
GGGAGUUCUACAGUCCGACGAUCCAGUUUGGAGCCACAGACCUGGAUGUGGCCAACUUCUACGUUUCCCAACUGCAGACUCCCAUAGGUGUACAGGCCGAGGCCUUGCUUCGAUGUAGUGACAUAAUUUCCUAUUCUUUCAAGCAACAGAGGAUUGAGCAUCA	0.808
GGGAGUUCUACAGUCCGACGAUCCAUUAUGACCGGGCUCAUAUUGCUCAACUGUGUGAAAAGGCUGGCCUACUGCAGCGUGCAUUAGAACAUUUCACUGAUUUAUAUGAUAUAAAACGUGCAGUGGUUCACACCCAUCUUCUUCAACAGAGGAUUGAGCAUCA	0.246
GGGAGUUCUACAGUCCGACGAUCGCACGACGUUCUUUCUUCUGUAGGAUGAAGUGUAACAGGCCUUCAGUAAAGGUUGAAGACAAGGACUUCCCCUCUACCUGCUCAAAGAAAAAAGAUCGAAAAAGCUUCUGCACAAUCCACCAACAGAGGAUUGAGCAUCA	0.159

Block 4
Target: Sal-like protein 4, full length isoform B (SALL4, Homo sapiens, UniProt Q9UJQ4-2, residues 1-616)
Technique: universal PBM
Form: double-stranded DNA, one strand shown
Medium: in vitro
Tested at: not given
Setting: 8-mer, flanks averaged, mean of replicates
Direction: higher = stronger binding
Oligonucleotide	E-score
ATTACGAA	0.215
AACTCTAT	0.11
AAAGGCCA	-0.149
GAGCACGA	-0.0686
GCTTTTCA	0.066
CCGTTTCG	-0.177
CGGTCTTA	-0.0786
CGTGCACC	-0.22
AGGTTACT	0.0361
ATACGGAA	0.107
ACGCCCTA	-0.168
AAACTCCA	0.12
AAGCAATA	0.226
TCAATGCA	0.128
ATTGTCCG	0.153
AACCGGTA	-0.145
GCCAAGCC	-0.241
ACCTCTTG	-0.19
AACGTGGG	-0.102
ACCCTGGA	-0.166
CTCGTACC	0.0423
ATAAACAT	0.371
CTGGGAGC	-0.241
ACCGAATA	0.154
GGCCGAGA	-0.12
